Published values collected from several papers.
Numbered parts are unrelated; each lists some results of a single study.

Study 1 — method: RNA Bind-n-Seq; molecule type: RNA; matrix: in vitro; tested at: 365 nM; relative to: no-protein control; direction: higher = stronger binding; endpoint: RBNS enrichment (R)
Target: RNA binding protein fox-1 homolog 2, RRM domain, GST-SBP tag (RBFOX2, Homo sapiens, UniProt O43251-10, residues 100-194)
Setting: natural RNA segment, single round, ends assumed
All sequences stand within: GGGAGUUCUACAGUCCGACGAUC … UGGAAUUCUCGGGUGCCAA
Target sequence (chain): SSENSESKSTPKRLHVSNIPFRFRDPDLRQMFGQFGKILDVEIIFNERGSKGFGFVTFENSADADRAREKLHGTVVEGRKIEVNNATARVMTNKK
ACUUUCUUUCUGUAGCAUAGCUUCUGUCUCAGAUGCCCCAGCAAAUAAAUGCUGUCUCUUAUUGGUCGAACUGAAUCCUGUGUAAUAUUUGGGUUGGGAAUAUGGGAAAA: 0.807
UUCUAAUAUAUAUAAUAUUAUGGUAAUAGCAGAAGUUUUGUUAUCUUAAUAGCGGGAGGGGGGUAUAUUUGUGCAGUUGCACAUUUGAGUAACUAUUUUCUUUCUGUUUU: 0.536
UUUGUUUAUUUUUUGGAAGAGACAAAGAUUUCUUCUGCACUCUGAGCCCAUAGGUCUCAGAGAGUUAAUAGGAGUAUUUUUGGGCUAUUGCAUAAGGAGCCACUGCUGCC: 0.528
CUCCAACUCCUUCUGGGAAGGUUGAGCUGGCCAGAGCCAAGAAACACUUCCAGGAACAUUAACAUGAAGGGAAGAGGUGAGCCACCCUCCUUGCCUGGCCUUAGCCGUUU: 0.326
GAUGCUCCUUCCCUGAAUAUGCAGUAGAGCUGUGCCACAUGCCCUUUGAAGAUCUUCAUGGCUGCUGUGAGACCCUGCUUUGGCAGCACCGAGUCACCUGGUGAGCCUCA: 0.585

Study 2 — method: universal PBM; molecule type: double-stranded DNA, one strand shown; matrix: in vitro; tested at: not given; direction: higher = stronger binding; endpoint: E-score
Target: Sal-like protein 4, full length isoform B (SALL4, Homo sapiens, UniProt Q9UJQ4-2, residues 1-616)
Setting: 8-mer, flanks averaged, mean of replicates
AATAGGCC: -0.0225
AGCGAATG: -0.199
CGCATGGC: -0.11
GCGTTACA: 0.133
ACTAACTA: 0.0358

Study 3 — method: protein-binding microarray; molecule type: double-stranded DNA, one strand shown; matrix: in vitro; tested at: 250 nM; setting: 60-bp whole probe; together with: salmon DNA 0.4 mg/ml; relative to: random background probes; direction: higher = stronger binding; endpoint: log fluorescence; all sequences stand within: GCCTAGCAC … GTCTTGATTCGCTTGACGCTGCTG
Target: Interferon regulatory factor 5, full length, phosphomimetic (IRF5, Homo sapiens, UniProt Q13568-2, residues 1-514, K96S/S451D/S453D/S456D/S462D)
GACGATTTCGGGTTTCGAGACGTGCTA: 5.24 z-score
GACGGACTGCTCATCCTGACGTGCTAG: -0.589 z-score
GACGGACCGCTTATCCTGACGTGCTAG: -0.419 z-score
TTAGGTCTCGGTTTCTGTTAGTGCTAG: 3.36 z-score
GACGGTTTCGGTTCCGGGATGTGCTAG: 10 z-score
GACGGTTTCCACTATCGGGACGTGCTA: 2.64 z-score
CTAGAGATTTTTCTCAACCGGTGCTAG: -0.16 z-score

Further values, each from its own experiment
PhoQ, residues 284 288 289 292 302 303 AGGLSV — fold induction (PhoP, residues 12 14 15 18 19 HLGGL (Escherichia coli, UniProt P23836); Sort-seq, refers to: YFP reporter; E. coli; PhoQ-PhoP variant library, together with: 10 µM Mg2+; relative to: high Mg2+ state, higher = stronger signaling): 1.26

A few entries again (study 3):
GACGATTTCGGGTTTCGAGACGTGCTA: 5.24 z-score
GACGGACTGCTCATCCTGACGTGCTAG: -0.589 z-score
